Assay results gathered from unrelated publications.
Parts stem from different laboratories: compare values within a part only. Changes are numbered by the printed parent chain.
Chain of UniProt Q9C0B0 (30-357, looked up): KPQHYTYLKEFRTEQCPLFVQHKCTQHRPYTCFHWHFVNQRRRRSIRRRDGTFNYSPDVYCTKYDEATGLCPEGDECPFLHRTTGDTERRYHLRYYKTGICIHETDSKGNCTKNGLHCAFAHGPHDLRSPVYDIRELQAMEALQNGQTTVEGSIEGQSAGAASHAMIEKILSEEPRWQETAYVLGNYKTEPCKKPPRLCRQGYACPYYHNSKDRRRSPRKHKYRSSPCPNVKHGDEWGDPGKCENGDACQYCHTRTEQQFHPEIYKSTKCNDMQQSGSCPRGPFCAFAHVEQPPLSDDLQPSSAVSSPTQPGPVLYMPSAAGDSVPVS

Block 1
Target: ABI1, truncated, D143A, DHFR fusion (Arabidopsis thaliana)
Technique: DHFR PCA, deep sequencing
Medium: yeast
Notes: methotrexate growth selection, single substitutions
Added: (+)-ABA 4.8 µM
Relative to: wild-type fitted maximum
Direction: higher = stronger binding
Starting sequence: PYL1, truncated, DHFR fusion (Arabidopsis thaliana); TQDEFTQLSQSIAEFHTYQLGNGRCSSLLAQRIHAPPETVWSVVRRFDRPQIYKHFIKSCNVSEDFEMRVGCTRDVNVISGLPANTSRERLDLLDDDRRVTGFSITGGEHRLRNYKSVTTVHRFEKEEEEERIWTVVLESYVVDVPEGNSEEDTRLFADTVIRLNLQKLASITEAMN; partner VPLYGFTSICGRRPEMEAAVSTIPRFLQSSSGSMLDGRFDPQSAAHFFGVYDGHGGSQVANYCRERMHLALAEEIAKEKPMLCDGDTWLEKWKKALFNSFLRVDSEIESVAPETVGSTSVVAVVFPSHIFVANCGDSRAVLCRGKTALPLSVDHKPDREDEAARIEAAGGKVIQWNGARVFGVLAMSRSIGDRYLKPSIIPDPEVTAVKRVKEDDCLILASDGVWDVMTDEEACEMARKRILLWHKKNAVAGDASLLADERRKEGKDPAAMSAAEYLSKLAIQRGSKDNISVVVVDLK
Change | relative binding score
Q7A | 78.2%
L8N | 24.8%
E151C | 72.6%
F103P | -12.6%
S63M | 54.2%
I79A | 55.3%
L112E | 4.05%
I57E | 0.835%
T1D | 72.5%
N114W | -2.73%
S27N | 75.5%
D96L | 3.8%
A158S | 18.7%
D95H | -5%

Block 2
Target: Histone acetyltransferase KAT6A, winged helix 1, GST fusion (KAT6A, Homo sapiens, UniProt Q92794, residues 1-85)
Technique: protein binding microarray
Form: double-stranded DNA, one strand shown
Medium: in vitro
Concentration: not given
Notes: 8-mer, flanks averaged, mean of 2 arrays, mostly near background
Relative to: not given
Direction: higher = stronger binding
Residues (chain): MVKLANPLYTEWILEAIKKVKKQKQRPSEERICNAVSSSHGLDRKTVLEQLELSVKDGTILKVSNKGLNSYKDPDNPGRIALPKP
Oligonucleotide | E-score
ACTCGGAC | -0.00468
TAGGCTCA | -0.2
GTGCGACA | 0.153
ACGATTGG | -0.116
ACCACCTG | -0.132
CACATAGA | -0.231
ATCTATCA | -0.0757
AGAGTCTG | -0.301
GAGAATGC | 0.119
CAAAACTA | -0.144
AAGATCTC | -0.144
GGCAGGAC | 0.0357
CCTACACC | -0.171
AGTCTTGC | 0.0304
CAGCGGTA | 0.283
GCTCGCAA | -0.116
GACAAGTC | -0.0248
ATGCAAAA | -0.22
CACATCAC | -0.123

Block 3
Target: Sal-like protein 4, full length isoform A (SALL4, Homo sapiens, UniProt Q9UJQ4, residues 1-1053)
Chain of UniProt Q9UJQ4 (whole entry, looked up): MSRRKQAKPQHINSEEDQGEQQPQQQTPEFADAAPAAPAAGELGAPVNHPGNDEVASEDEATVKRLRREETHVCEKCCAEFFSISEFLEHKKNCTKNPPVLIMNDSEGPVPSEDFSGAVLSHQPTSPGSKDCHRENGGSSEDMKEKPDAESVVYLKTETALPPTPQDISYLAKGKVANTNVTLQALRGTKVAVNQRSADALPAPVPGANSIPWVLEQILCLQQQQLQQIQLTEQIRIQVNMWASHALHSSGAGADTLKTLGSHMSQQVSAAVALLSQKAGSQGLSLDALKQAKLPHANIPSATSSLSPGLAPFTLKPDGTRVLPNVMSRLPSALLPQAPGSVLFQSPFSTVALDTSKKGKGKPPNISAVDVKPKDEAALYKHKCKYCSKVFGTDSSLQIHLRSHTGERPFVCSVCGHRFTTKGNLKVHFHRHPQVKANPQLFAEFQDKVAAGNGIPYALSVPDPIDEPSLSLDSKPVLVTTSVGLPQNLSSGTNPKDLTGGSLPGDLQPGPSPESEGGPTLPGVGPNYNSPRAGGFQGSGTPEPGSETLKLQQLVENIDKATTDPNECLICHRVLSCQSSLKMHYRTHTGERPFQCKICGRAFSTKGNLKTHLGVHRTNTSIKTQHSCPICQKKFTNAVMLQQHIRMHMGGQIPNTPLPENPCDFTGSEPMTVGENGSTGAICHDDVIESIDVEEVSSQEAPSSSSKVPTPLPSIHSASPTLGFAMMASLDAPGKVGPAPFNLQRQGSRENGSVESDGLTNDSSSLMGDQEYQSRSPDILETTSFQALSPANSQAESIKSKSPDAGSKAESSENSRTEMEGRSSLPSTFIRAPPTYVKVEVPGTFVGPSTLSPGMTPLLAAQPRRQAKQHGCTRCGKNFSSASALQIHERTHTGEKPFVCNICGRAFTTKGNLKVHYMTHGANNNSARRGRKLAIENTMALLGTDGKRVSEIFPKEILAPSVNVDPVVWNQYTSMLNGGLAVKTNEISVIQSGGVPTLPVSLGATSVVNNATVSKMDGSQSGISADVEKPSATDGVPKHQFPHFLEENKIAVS
Technique: universal PBM
Form: double-stranded DNA, one strand shown
Medium: in vitro
Concentration: 600 nM
Notes: 8-mer, flanks averaged, mean of replicates
Direction: higher = stronger binding
Oligonucleotide | E-score
ACGACCCG | -0.241
GGTTACTA | -0.0615
AACAGATA | 0.145
CACTTAAG | 0.108
GACGTGAA | -0.0328
CCGATTGA | -0.109
CGAGCGCA | -0.0509
AGAGTCAC | -0.101
CGAAGAAA | 0.0894
CAGCCGAG | -0.228
AGTTGATC | 0.0147
ACGAATTC | 0.136
AAATGATA | 0.396
ATAGTCAA | 0.233
CTGCGTGC | -0.257
CTTCTATA | 0.263

Block 4
Target: JUNB, bZIP domain (human)
Technique: DHFR protein complementation
Medium: yeast
Notes: single substitutions, most at no-binding floor
Relative to: wild-type JUN-FOS pair
Direction: higher = stronger binding
Starting sequence: JUN, bZIP domain (human); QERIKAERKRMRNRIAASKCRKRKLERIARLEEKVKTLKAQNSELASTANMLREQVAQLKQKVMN; partner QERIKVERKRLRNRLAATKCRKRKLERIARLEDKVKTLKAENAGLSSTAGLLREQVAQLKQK
Change | binding fitness [natural log]
E44G | -1.32
A40N | -1.28
R30Q | -0.929
E33F | -1.29
R30N | -1.23
A46Q | -0.959
S47C | -1.12
S43R | -0.861
A57G | -1.33
Q41A | -1.22
S43T | -1
K39A | -1.32
T48Y | -1.34
L31W | -1.52
R30D | -1.02

Block 5
Target: CCNE2, cyclin fold, Cln2 fusion (human)
Technique: yeast growth competition, sequencing
Medium: yeast
Notes: strong parent motif
Relative to: not given
Direction: higher = stronger binding
Starting sequence: REPIN1 docking peptide (human); QSFRGWVALVLHL
Change | normalised enrichment score
QSFRGWVALVAHL [L11A] | 1.05
QSFAGWVALVLHL [R4A] | 0.142
QSFRGWVALVLHA [L13A] | 1.19
QSFRGWVAAVLHL [L9A] | 0.532
QSFRGWVALVLAL [H12A] | 0.627
QSFRGWAALVLHL [V7A] | 1.64

Block 6
Target: RNA binding protein fox-1 homolog 2, RRM domain, GST-SBP tag (RBFOX2, Homo sapiens, UniProt O43251-10, residues 100-194)
Technique: RNA Bind-n-Seq
Form: RNA
Medium: in vitro
Concentration: 365 nM
Notes: natural RNA segment, single round, ends assumed
Relative to: no-protein control
Direction: higher = stronger binding
Target sequence (chain): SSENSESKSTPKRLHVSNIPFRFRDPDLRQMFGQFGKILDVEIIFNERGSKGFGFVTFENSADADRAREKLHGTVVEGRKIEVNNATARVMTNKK
Oligonucleotide | RBNS enrichment (R)
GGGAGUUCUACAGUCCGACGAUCGUGAUGUCUUUCAGGGAAGCAGUGUUUGAAAUAGAUAGCGGGUACCUUCCCUGGAUGGAGUCAGGGCGGGGGCACUGUCCUCCACUGCUAGACACCCCCAGAAUGCCUGGUGGAAUUCUCGGGUGCCAA | 1.25
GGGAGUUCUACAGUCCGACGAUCCUGCGCACGUAGGACUGAAUUCAGUGAUAUCCCUAUACACUGCCAAUUAGUGGAUAGGUUAUUGUACUUCCAUUCAUACUCUGGGCACUUGUGUUAAAUUGUUCUGUUACUGGAAUUCUCGGGUGCCAA | 0.303
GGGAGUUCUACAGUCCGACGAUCUCAUGUAAUGGUCUUUGGCAGGAGAGAGCACUGAGUCAUUGCUGGAGUUCAGUUCAACAGAGCUGCAGCUUGGGAAGCCCUGUAAGCCCACAGCUUCCUCUCUUAUAUUAUGGAAUUCUCGGGUGCCAA | 0.345
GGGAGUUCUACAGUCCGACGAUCACACGUGGUGCUGCUGCCCUGGGUACAGCCCACCAACACCCAGGGCCAGCCAGUAUCACCAGACCUCUGCUGGACCUAGUCAAGAAGCCCAGUUAACAUGUAGAGCAUGGUGGAAUUCUCGGGUGCCAA | 1.1
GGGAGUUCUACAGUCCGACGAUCCCACCUGGAGGAUUUGCUGCCCUCUGUCCCUCAUUUCAGAUUAUUGCUGCUCCAACCCAUAGCACGCUUCCUACUGCACACACAUGUUUUAACCAACUGUGCCUCCCUACUGGAAUUCUCGGGUGCCAA | 1.68
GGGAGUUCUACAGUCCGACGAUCAAGAACUGUUUGCAUAAUUUUCUGAAUUUUGAGCACUUUGUGCUAUAUAAGGACCCAUAUUUAAGCUUUGUGUGCAGUAAGAAAGUGUAAAGCCAAUUCCAGUGUUGGACUGGAAUUCUCGGGUGCCAA | 1.34
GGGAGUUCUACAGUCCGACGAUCGGGAUUUGUUUGACUUGACUAGGGAACCACAAGUUUUCAUAUAAUGCCUGAUUUAGCCCUGUGCCUAACAGUUUAAAUCUUAAUGCUAAUGUUAAUUGCUUCCCAGUUGGUGGAAUUCUCGGGUGCCAA | 0.336
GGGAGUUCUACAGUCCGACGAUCAUUGCUAUUUUCACGUAGGCCCUUGUCCUUGGAUACCCAGGGGAGGGAGCCACUGUCGCCGCAGCACACCAGGAUUGGGGCUCUCAGGCUGUGCUGCCCUAGACCCGCCAUGGAAUUCUCGGGUGCCAA | 0.336
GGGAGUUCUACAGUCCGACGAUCGUGUAAAAAAAUUUAAACAAGUGUUAACUUUAAACAGUUCGCUACAAGUAAAUGAUUAUAAAUACUACCUUCUGGGUUAAGAAAAUUCCAUUCAAAUAACAUUCUCAUGUUGGAAUUCUCGGGUGCCAA | 0.45
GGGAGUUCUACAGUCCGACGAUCGAAAGAUAAAGGCUUGUGAACAAAGAAAGCUAAGCUGUUGUACAUAUUGUAGUUGGCUGUGCAUGGUACAAAUUUAUUAAUAUGAAGAAAUGCAAAAUGUAUUGCUUUUGUGGAAUUCUCGGGUGCCAA | 3.86
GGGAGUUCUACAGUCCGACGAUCCACAAAGGCCUUGAAGAGUGGACAUUCCCAGGUCCCUGGCACCUUCCCUUGAGCCAGCUCCAUUGCUACUUAUUCAUGUGACUGAAGCUGACCACAGGCAGCUGGCAGGUUGGAAUUCUCGGGUGCCAA | 0.34
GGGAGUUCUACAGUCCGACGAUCCAUUACUUCCUUUUAUUUUGCUCUUUAAAUAAUAAAAUUCAAGAAGCAUAUUCUAUGUGGAAUAGAUCUGUUUUUCCAUCUGUGUCCCAGAUUGUGACCCUAGACUUUCAUGGAAUUCUCGGGUGCCAA | 0.309

Further values, each from its own experiment
HSPA1B: HSPA1B (Homo sapiens, UniProt P0DMV9)
Molecule | target or system | assay | test system | conditions | how to read | endpoint | value
HSP90AB1 (Homo sapiens, UniProt P08238) | HSPA1B | cross-linking MS | – | hits only | – | interaction screen | cross-linked
GGGAGUUCUACAGUCCGACGAUCGAAGAUGGUGGUUGUACAUUAUUCAUCCCGAAAAUAUAAAAAUUCAUUUUGUUUUGAAGCCCGUUAUUAAACUGGAACCGCAGUUAUAUCCCUGAGAAUGGGGCCCUUCUCUUGACAUUCCAACAGAGGAUUGAGCAUCA | RING finger protein unkempt homolog, zinc fingers 1-6, SBP tag (UNK, Homo sapiens, UniProt Q9C0B0, residues 30-357) | RNA Bind-n-Seq | RNA, in vitro | 100 nM, RNA with constant flanks, ends assumed | relative to: input RNA pool, higher = stronger binding | bound/input enrichment | 0.844 ratio
COPB2 (Homo sapiens, UniProt P35606) | SCN3A (Homo sapiens, UniProt Q9NY46) | cross-linking MS | cell fractions | added: DSSO | – | cross-linked residues | K386 to K1019
RPN1 (Homo sapiens, UniProt P04843) | PDIA5 (Homo sapiens, UniProt Q14554) | cross-linking MS | – | hits only | – | interaction screen | cross-linked
HSPA4L (Homo sapiens, UniProt O95757) | HSPA1B | cross-linking MS | – | hits only | – | interaction screen | cross-linked

Some of these lines once more (block 3):
Oligonucleotide | E-score
AAATGATA | 0.396
GACGTGAA | -0.0328
ACGACCCG | -0.241
AACAGATA | 0.145
CCGATTGA | -0.109
